Measurements pooled from the literature.
A part holds a random share of what one study measured. Values joined by “and” are separate records of one study, mostly repeats; a detail may differ.

Series 1
Target: Membrane-associated tyrosine- and threonine-specific cdc2-inhibitory kinase (PKMYT1, Homo sapiens, UniProt Q99640)
Sequence of UniProt Q99640 (whole entry, looked up): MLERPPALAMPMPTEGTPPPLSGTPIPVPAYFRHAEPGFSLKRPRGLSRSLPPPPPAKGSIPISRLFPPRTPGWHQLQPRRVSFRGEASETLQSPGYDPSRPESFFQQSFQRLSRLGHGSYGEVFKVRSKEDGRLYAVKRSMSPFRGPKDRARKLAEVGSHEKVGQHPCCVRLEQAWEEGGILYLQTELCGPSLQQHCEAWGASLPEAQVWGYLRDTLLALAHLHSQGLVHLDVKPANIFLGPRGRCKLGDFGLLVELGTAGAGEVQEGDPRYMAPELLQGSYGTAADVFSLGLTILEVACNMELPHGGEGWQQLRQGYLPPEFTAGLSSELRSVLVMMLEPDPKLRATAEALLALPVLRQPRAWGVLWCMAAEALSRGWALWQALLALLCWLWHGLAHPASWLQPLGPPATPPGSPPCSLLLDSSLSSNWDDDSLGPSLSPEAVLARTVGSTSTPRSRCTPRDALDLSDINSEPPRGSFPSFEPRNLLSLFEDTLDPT
Action: degrader
Technique: automated immunoblot (Jess)
Cells: HCC1569
Time: 24 h
Cc1ccc(O)c(C)c1-c1cnc2[nH]c(-c3cnc(N4CC5(CC(CN6CCN(c7ccc(NC8CCC(=O)NC8=O)cc7F)CC6)C5)C4)nc3)cc2c1C#N (stereo not drawn) gave a DC50 of 0.3 nM.
For Cc1ccc(O)c(C)c1-c1cnc2[nH]c(-c3cnc(N4CCC(CCN5CCN(c6ccc(NC7CCC(=O)NC7=O)cc6F)CC5)CC4)nc3)cc2c1C#N (stereo not drawn), the DC50 was 0.3 nM.
For Cc1ccc(O)c(C)c1-c1cnc2[nH]c(-c3cnc(N4CCC(CN5CCN(c6ccc7c(c6F)CN(C6CCC(=O)NC6=O)C7=O)CC5)CC4)nc3)cc2c1C#N (stereo not drawn), the DC50 was 0.3 nM.
With Cc1ccc(O)c(C)c1-c1cnc2[nH]c(-c3cnc(N4CCC(CN5CCN(c6ccc(NC7CCC(=O)NC7=O)cc6F)CC5)CC4)nc3)cc2c1C#N (stereo not drawn) the DC50 was 0.6 nM.
Cc1ccc(O)c(C)c1-c1cnc2[nH]c(-c3cnc(N4CCC(CN5CCN(c6ccc(NC7CCC(=O)NC7=O)c(F)c6)CC5)CC4)nc3)cc2c1C#N (racemic) has a DC50 of > 1000 nM.
With Cc1ccc(O)c(C)c1-c1cnc2[nH]c(-c3cnc(N4CCC(CN5CCN(c6ccc7c(c6)C(=O)N(C6CCC(=O)NC6=O)C7=O)CC5)CC4)nc3)cc2c1C#N (stereo not drawn) the DC50 was 0.5 nM.
Cc1ccc(O)c(C)c1-c1cnc2[nH]c(-c3cnc(N4CCC(CN5CCN(c6cc7c(cc6F)c(N6CCC(=O)NC6=O)nn7C)CC5)CC4)nc3)cc2c1C#N gave a DC50 of 0.4 nM.
Cc1ccc(O)c(C)c1-c1cnc2[nH]c(-c3cnc(N4CCC5(CC4)CC(N4CCN(c6ccc(N[C@H]7CCC(=O)N(C)C7=O)cc6F)CC4)CO5)nc3)cc2c1C#N (single isomer, unassigned) gave a DC50 of > 1000 nM.

Series 2
Organism: Arabidopsis thaliana
Strain: Col-0
Concentration: 50 µg/mL
Notes: seed germination
For CCN1C(=O)C(O)(C(=O)O)Oc2cc(F)ccc21 (stereo not drawn), the root length was 0.683 cm.
For O=C(O)C1Oc2cc(F)ccc2N(Cc2ccccc2)C1=O (stereo not drawn), the root length was 0.859 cm.
CN1C(=O)C(O)(C(=O)O)Oc2cc(F)ccc21 (stereo not drawn) gave a root length of 0.755 cm.
For O=C(O)C1(O)Oc2cc(F)ccc2N(Cc2ccccc2)C1=O (stereo not drawn), the root length was 0.01 cm.
The root length of CC(C)=CCN1C(=O)C(O)(C(=O)O)Oc2cc(F)ccc21 (stereo not drawn) is reported as 0.902 cm.
The root length of Cc1ccc2c(c1)OC(O)(C(=O)O)C(=O)N2Cc1ccccc1 (stereo not drawn) is reported as 0.922 cm.
The root length of CCCN1C(=O)C(O)(C(=O)O)Oc2cc(F)ccc21 (stereo not drawn) is reported as 0.41 cm.
The root length of O=C(O)C1(O)Oc2cc(Br)ccc2N(Cc2ccccc2)C1=O (stereo not drawn) is reported as 0.528 cm.

Single results of other studies
With Cn1cc(-c2cccc(CN3CCC4(CC3)COc3c4ccc4c3CN([C@H]3CCC(=O)NC3=O)C4=O)c2)cn1 the CL was 22.4 mL/min/kg and 22.1 mL/min/kg and 16.9 mL/min/kg (rat; intravenous, 1 mg/kg, approximate dose).
For FC(F)(F)c1ccc(C2=NOC3(NC(c4ccccc4)=NO3)N2c2ccccc2)cc1 (stereo not drawn), the viability was ~60% (Huh-7; cell growth or viability, ATP luminescence; 20 µM, 72 h).
